{"data": "Results collected from several papers", "BCHE": "Cholinesterase (BCHE, Equus caballus, UniProt P81908)", "note": "Protocols differ between the studies behind these lines. Numbers after ± are the reported error.", "sequence of UniProt P81908 (whole entry, looked up)": "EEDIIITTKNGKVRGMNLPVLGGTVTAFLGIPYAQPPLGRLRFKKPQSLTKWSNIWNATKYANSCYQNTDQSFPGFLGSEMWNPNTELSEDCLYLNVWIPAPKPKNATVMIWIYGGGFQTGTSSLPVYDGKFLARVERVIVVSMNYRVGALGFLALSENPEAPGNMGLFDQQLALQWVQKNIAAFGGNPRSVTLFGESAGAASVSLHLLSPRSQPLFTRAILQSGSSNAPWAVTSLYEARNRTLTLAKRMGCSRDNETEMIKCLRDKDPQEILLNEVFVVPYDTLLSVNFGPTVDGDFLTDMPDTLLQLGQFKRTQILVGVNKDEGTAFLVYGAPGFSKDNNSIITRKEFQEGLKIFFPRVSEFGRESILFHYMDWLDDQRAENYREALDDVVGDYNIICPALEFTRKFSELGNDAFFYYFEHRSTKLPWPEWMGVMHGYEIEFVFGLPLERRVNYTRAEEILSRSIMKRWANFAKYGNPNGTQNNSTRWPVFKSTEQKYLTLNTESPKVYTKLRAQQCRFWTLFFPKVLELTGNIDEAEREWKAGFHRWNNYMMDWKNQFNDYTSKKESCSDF", "sequence of UniProt Q8IU85 (whole entry, looked up)": "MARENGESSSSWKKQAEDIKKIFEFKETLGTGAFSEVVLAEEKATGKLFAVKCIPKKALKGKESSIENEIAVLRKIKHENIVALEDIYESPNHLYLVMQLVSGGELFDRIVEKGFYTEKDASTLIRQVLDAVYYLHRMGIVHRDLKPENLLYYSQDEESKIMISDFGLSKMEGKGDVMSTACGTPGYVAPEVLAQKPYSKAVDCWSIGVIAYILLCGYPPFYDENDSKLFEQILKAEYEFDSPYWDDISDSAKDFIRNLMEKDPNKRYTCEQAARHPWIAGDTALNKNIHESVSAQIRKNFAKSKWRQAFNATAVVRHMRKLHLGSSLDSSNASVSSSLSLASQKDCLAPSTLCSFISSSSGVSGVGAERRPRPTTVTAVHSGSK", "sequence of UniProt P12821 (whole entry, looked up)": "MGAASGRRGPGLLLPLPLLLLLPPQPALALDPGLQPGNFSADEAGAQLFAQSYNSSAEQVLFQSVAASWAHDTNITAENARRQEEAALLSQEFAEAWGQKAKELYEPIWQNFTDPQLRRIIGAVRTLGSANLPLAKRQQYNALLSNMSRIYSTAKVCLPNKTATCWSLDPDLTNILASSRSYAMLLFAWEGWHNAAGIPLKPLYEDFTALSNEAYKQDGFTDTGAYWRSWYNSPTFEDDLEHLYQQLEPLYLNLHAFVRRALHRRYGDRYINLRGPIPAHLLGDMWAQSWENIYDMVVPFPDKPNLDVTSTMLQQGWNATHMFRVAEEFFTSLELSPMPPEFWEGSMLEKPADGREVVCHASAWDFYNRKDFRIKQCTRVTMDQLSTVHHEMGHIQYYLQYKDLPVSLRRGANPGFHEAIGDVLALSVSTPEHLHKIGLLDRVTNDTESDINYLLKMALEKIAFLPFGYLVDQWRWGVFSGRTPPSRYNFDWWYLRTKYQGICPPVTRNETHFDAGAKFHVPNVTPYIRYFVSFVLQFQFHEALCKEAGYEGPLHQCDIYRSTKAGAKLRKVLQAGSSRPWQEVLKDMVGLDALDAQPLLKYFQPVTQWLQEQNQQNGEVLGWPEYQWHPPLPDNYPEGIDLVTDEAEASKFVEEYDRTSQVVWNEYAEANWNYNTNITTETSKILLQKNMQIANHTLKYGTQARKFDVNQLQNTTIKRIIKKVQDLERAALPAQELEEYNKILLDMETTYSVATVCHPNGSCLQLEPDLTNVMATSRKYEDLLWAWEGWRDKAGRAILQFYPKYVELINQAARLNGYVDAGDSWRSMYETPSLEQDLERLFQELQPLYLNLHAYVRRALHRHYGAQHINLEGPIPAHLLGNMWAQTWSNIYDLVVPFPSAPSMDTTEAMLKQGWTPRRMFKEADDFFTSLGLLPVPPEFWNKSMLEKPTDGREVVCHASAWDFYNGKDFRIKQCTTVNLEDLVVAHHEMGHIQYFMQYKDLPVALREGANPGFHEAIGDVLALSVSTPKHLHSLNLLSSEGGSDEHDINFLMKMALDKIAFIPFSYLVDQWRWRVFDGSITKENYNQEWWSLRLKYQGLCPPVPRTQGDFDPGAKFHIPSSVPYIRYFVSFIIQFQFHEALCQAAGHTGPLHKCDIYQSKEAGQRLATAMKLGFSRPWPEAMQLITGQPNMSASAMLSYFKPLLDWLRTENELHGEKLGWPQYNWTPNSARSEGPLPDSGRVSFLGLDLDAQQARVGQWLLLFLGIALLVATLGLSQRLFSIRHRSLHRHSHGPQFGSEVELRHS", "sequence of UniProt P25103 (whole entry, looked up)": "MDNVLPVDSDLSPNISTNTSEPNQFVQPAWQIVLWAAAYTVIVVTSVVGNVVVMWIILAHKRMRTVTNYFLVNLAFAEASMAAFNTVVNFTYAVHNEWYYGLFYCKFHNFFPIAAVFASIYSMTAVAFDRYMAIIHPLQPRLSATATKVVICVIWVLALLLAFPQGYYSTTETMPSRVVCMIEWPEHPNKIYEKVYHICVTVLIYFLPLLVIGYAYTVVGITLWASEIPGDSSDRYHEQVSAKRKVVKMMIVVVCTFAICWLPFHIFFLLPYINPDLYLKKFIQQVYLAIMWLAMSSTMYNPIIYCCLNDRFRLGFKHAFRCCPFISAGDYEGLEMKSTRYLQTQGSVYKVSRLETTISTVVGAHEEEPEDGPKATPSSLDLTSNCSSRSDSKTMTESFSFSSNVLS", "sequence of UniProt P12822 (whole entry, looked up)": "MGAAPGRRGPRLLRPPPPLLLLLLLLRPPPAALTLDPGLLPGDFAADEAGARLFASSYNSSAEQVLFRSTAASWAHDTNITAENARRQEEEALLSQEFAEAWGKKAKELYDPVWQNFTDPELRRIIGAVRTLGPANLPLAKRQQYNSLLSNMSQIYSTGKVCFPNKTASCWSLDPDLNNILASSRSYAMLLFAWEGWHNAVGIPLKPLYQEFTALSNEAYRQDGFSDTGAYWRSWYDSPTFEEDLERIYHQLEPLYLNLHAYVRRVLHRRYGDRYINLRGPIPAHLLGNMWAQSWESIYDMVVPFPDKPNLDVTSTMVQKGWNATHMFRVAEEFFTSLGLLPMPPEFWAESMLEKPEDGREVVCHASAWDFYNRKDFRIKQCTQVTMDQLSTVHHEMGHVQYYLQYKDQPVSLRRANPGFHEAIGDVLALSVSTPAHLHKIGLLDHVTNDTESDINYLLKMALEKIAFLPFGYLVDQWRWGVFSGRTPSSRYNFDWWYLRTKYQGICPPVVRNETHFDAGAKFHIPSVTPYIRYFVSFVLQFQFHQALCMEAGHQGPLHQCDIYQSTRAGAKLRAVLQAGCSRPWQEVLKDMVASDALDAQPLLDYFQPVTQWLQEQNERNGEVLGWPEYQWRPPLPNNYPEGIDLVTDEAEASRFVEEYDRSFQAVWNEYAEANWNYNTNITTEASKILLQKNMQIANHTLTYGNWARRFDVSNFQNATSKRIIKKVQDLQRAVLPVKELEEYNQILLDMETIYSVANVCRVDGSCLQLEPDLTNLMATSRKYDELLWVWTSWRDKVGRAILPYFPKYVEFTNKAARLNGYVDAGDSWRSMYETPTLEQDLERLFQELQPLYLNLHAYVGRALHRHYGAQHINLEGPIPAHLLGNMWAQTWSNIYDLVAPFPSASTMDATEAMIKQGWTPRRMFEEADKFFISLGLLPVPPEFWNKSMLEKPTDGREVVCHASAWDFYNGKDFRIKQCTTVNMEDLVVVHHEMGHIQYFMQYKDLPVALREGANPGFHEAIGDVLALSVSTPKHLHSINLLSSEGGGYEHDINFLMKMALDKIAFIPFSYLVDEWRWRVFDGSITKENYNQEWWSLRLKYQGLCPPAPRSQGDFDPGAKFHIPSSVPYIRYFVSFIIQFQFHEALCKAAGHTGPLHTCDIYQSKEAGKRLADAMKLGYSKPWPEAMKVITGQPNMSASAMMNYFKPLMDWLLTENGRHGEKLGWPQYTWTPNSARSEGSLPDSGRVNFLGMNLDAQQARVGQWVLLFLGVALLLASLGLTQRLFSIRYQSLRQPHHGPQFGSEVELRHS", "sequence of UniProt P28482 (whole entry, looked up)": "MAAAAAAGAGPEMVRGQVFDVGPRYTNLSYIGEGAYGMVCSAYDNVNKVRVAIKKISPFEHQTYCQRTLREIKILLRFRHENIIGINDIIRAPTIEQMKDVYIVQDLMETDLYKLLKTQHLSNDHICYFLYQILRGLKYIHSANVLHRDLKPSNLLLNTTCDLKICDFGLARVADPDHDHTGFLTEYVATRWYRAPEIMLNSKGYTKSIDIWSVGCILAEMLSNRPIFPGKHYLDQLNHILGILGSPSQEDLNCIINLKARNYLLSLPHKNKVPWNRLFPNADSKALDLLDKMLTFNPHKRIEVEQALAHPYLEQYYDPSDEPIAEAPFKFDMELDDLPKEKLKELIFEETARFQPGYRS", "sequence of UniProt Q9UIK4 (whole entry, looked up)": "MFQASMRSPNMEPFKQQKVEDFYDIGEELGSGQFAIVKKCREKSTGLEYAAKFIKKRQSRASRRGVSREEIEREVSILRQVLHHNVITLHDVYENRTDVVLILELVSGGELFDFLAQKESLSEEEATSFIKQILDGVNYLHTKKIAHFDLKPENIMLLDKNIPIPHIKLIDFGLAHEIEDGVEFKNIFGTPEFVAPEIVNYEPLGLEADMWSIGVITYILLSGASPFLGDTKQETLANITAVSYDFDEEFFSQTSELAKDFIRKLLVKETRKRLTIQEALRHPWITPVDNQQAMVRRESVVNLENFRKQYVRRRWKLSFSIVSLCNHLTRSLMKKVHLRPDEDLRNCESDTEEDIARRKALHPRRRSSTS", "sequence of UniProt P07711 (whole entry, looked up)": "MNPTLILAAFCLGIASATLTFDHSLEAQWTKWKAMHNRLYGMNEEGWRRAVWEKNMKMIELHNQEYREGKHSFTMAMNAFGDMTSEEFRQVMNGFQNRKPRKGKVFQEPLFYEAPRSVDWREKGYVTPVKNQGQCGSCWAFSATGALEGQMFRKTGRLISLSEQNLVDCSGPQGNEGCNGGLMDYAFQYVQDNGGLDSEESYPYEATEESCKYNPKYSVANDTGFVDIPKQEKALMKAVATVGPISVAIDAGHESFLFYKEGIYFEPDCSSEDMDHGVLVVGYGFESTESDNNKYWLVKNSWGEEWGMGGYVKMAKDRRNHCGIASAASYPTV"}
{"Compound": "O=C1c2ccccc2CCCN1CCCCN1CCN(c2cccc(Cl)c2Cl)CC1", "target": "5-hydroxytryptamine receptor 5A (HTR5A, Homo sapiens, UniProt P47898)", "test": "radioligand binding", "conditions": "concentration not given, together with: [3H]LSD", "inhibition [%]": 87.8}
{"Compound": "CS(C)(=O)=Nc1ccc(-c2ccc(-c3nc4cc(O[C@@H]5CO[C@H]6[C@@H]5OC[C@H]6O)[nH]c4cc3F)cc2)cc1", "target": "Death-associated protein kinase 2 (DAPK2, Homo sapiens, UniProt Q9UIK4)", "test": "enzyme activity, inhibitor", "conditions": "10 µM", "inhibition [%]": 11}
{"Compound": "COc1ccc(F)cc1S(=O)(=O)Nc1cnc2c(c1)C(=O)NCCO2", "target": "5-hydroxytryptamine receptor 2C (HTR2C, Homo sapiens, UniProt P28335)", "test": "ligand displacement, radioligand", "conditions": "10 µM", "inhibition [%]": -4}
{"Compound": "O=S(=O)(F)CCc1cn(-c2c(F)cccc2F)nn1", "target": "BCHE", "test": "enzyme activity, inhibitor, Ellman's method", "system": "horse serum BuChE", "conditions": "20 µM", "inhibition [%]": "18.1 ± 2.2"}
{"Compound": "O=C(CN1CN(c2ccccc2)C2(CCN(C(=O)c3cnc4[nH]ncc4c3)CC2)C1=O)NCC(F)(F)F", "target": "Epidermal growth factor receptor (EGFR, Homo sapiens, UniProt P00533, A750P/del747-749)", "test": "inhibitor", "conditions": "concentration not given", "inhibition [%]": "< 50"}
{"Compound": "CN(C)[C@H]1C[C@@]23CC[C@@]4(O2)C(=CC[C@]2(C)[C@@H](c5ccc6ccncc6c5)CC[C@H]24)C=C3[C@@H](O)[C@@H]1O", "target": "Mitogen-activated protein kinase 1 (MAPK1, Homo sapiens, UniProt P28482)", "test": "ATP probe labelling, inhibitor, KiNativ profiling", "conditions": "1 µM", "inhibition [%]": 8.4}
{"Compound": "O=C(O)c1ccccc1/C=N/Nc1nc(-c2ccccc2Cl)cs1", "target": "High affinity nerve growth factor receptor (NTRK1, Homo sapiens, UniProt P04629)", "test": "enzyme activity, inhibitor", "conditions": "1 µM", "inhibition [%]": -37.3}
{"Compound": "N[C@H](C(=O)N1CCCC1)C1CCN(c2nccc3c(-c4ncc(Cl)cc4Cl)cccc23)CC1", "target": "Casein kinase II subunit alpha' (CSNK2A2, Homo sapiens, UniProt P19784)", "test": "kinase activity, inhibitor", "conditions": "10 µM, together with: ATP 1 mM", "inhibition [%]": 5.2}
{"Compound": "C(=N\\C12CC3CC(CC(C3)C1)C2)/c1ccccc1", "target": "Procathepsin L (CTSL, Homo sapiens, UniProt P07711)", "test": "enzyme activity, inhibitor", "conditions": "100 µM, with preincubation", "inhibition [%]": 1}
{"Compound": "CC(=O)NC[C@@H]1[C@@H](O)C[C@H]2[C@H](O)C[C@@H](CO)N12", "target": "Spodoptera litura β-N-acetylglucosaminidase", "system": "crude enzyme", "conditions": "0.856 µM, run 1, together with: p-nitrophenyl GlcNAc", "inhibition [%]": 62.9}
{"Compound": "C[C@H](NCc1ccc(-c2ccc(C(F)(F)F)cc2)cc1)C(N)=O", "target": "Angiotensin-converting enzyme (ACE, Oryctolagus cuniculus, UniProt P12822)", "test": "enzyme activity", "conditions": "1 µM, together with: 500 µM FAPGG", "inhibition [%]": 0}
{"Compound": "Fc1ccccc1CN1CCNCC1", "target": "BCHE", "test": "enzyme activity, inhibitor, Ellman", "conditions": "20 µM", "inhibition [%]": 36.7}
{"Compound": "CC(C)[C@H]1NC(=O)C[C@H]2/C=C/CCSSC[C@@H](NC1=O)C(=O)N[C@H](Cc1cccc3ccccc13)C(=O)NCC(=O)O2", "target": "Calcium/calmodulin-dependent protein kinase type 1D (CAMK1D, Homo sapiens, UniProt Q8IU85)", "test": "enzyme activity, inhibitor", "conditions": "10 µM", "inhibition [%]": 18.2}
{"Compound": "CCOC(=O)[C@](CC)(CCCSCCOCCOCCNC(=O)c1ccc(-c2c3ccc(=N)c(S(=O)(=O)O)c-3oc3c(S(=O)(=O)O)c(N)ccc23)c(C(=O)O)c1)NC(=O)c1ccc(C2CC2)c(Cc2ccc(F)cc2)n1", "target": "Angiotensin-converting enzyme (ACE, Homo sapiens, UniProt P12821)", "test": "enzyme activity, inhibitor", "conditions": "10 µM", "inhibition [%]": -22}
{"Compound": "CN[C@@H]1[C@H](O)[C@H](NC)[C@H]2O[C@]3(O)[C@H](O[C@@H]2[C@H]1O)O[C@H](C)C[C@H]3NC(=O)Cc1cc(Cl)ccn1", "target": "Substance-P receptor (TACR1, Homo sapiens, UniProt P25103)", "test": "ligand displacement, radioligand", "conditions": "10 µM", "inhibition [%]": 7}
{"Compound": "CN(/N=C/c1ccccc1C(=O)O)c1nc(-c2ccccc2Cl)cs1", "target": "Macrophage-stimulating protein receptor (MST1R, Homo sapiens, UniProt Q04912)", "test": "enzyme activity, inhibitor", "conditions": "1 µM", "inhibition [%]": -24}
{"Compound": "N#Cc1ccc(N2N=C3c4ccc(C(=O)O)cc4CCC3C2C2CCCC2)cc1Cl (stereo not drawn)", "target": "MLL4-WDR5 complex", "conditions": "10 µM", "inhibition [%]": 24}
{"Compound": "Cc1ccc2c(n1)c(-c1cccc(S(C)(=O)=O)c1)c(C)n2C/C(F)=C/CN", "target": "Metabotropic glutamate receptor 5 (GRM5, Homo sapiens, UniProt P41594)", "test": "ligand displacement, radioligand", "conditions": "10 µM", "inhibition [%]": 16}
{"note": "Repeated from above:"}
{"Compound": "CS(C)(=O)=Nc1ccc(-c2ccc(-c3nc4cc(O[C@@H]5CO[C@H]6[C@@H]5OC[C@H]6O)[nH]c4cc3F)cc2)cc1", "target": "Death-associated protein kinase 2 (DAPK2, Homo sapiens, UniProt Q9UIK4)", "test": "enzyme activity, inhibitor", "conditions": "10 µM", "inhibition [%]": 11}
